Measured values from different studies.
Every numbered part comes from another study and shows a few of its results, in no order. Substitutions count along the parent as printed.

Study 1
Target: Histone acetyltransferase KAT6A, winged helix 1, GST fusion (KAT6A, Homo sapiens, UniProt Q92794, residues 1-85)
Method: protein binding microarray
Molecule type: double-stranded DNA, one strand shown
Sample: in vitro
Tested at: not given
Setting: 8-mer, flanks averaged, mean of 2 arrays, mostly near background
Reference: not given
Direction: higher = stronger binding
Construct (chain): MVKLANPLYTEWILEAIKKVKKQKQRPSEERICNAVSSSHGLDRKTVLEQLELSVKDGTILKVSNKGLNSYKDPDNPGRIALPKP
Sequence	E-score
AAGATTTG	-0.0591
CTGGTTAC	-0.071
CAACGACG	0.135
AGACGGCG	0.325
ATCGTTCC	0.0119
ACAGGAAA	-0.00924
GACGAAGA	-0.005
ACACAGCA	-0.0874

Study 2
Target: Sal-like protein 4, full length isoform B (SALL4, Homo sapiens, UniProt Q9UJQ4-2, residues 1-616)
Method: universal PBM
Molecule type: double-stranded DNA, one strand shown
Sample: in vitro
Tested at: not given
Setting: 8-mer, flanks averaged, mean of replicates
Direction: higher = stronger binding
Sequence	E-score
TCTTTTAA	0.21
ACGCCTAG	0.00161
CCAATCAC	-0.0858
AATATGCG	0.245
ACACCGGT	-0.254
TAAATGGA	0.195
CAAGATGC	0.152
CACGTTAC	0.0347

Study 3
Target: Max dimerization protein 1, bHLH-zipper, MAX partner unstated (MXD1, Homo sapiens, UniProt Q05195, residues 56-136)
Method: protein-binding microarray
Molecule type: double-stranded DNA, one strand shown
Sample: in vitro
Tested at: not given
Setting: k-mer, scored over probes, only values ≥0.25
Direction: higher = stronger binding
Target sequence (chain): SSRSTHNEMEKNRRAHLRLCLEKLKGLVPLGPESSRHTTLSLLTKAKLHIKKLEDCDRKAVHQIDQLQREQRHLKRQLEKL
Sequence	E-score
ATGTGCCC	0.344
ATTCCATG	0.292
CCGTGCAC	0.283
CGTGTAAA	0.321
ACGTGGGC	0.392
GCGTGTAA	0.368
TCGTGGAA	0.3
CCATGGCA	0.293

Other studies, line by line
Starting sequence: viral docking peptide; KGVKRKLFAEDSS; partner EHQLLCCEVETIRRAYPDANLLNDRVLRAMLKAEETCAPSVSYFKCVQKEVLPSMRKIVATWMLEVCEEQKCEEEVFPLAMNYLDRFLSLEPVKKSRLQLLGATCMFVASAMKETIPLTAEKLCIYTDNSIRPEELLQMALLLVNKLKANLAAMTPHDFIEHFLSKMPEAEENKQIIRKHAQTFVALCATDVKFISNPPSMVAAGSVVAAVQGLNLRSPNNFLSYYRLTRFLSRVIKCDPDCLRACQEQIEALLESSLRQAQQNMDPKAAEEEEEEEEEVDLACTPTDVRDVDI
Variant	target	test	test system	setting	scale	quantity	value
L7S	CCND1, cyclin fold, Cln2 fusion (human)	yeast growth competition, sequencing	yeast	strong parent motif	reference: not given, higher = stronger binding	normalised enrichment score	0.073

For quick reference, copied from above (study 2):
Sequence	E-score
CCAATCAC	-0.0858
